Published values pooled from the literature.
Protocols differ between the studies behind these lines. ± gives the spread as reported.

O=C(O)c1c(O)cc(O[C@@H]2O[C@H](CO)[C@@H](O)[C@H](O)[C@H]2O)cc1/C=C/c1ccccc1 — AUC(0-inf) (Sprague-Dawley rat, plasma; intravenous, 1.0 mg/kg): 1160 ± 148 ng·h/mL
C=C(NC(=O)c1csc(-c2nc3c(cc2O)-c2nc(cs2)C(=O)NC(C(C)O)C(=O)NC(=C(C)OC)c2nc(cs2)C(=O)NC2c4nc(cs4)C(=O)NC(COC(=O)c4c5c6c(cccc6n4O)COC(=O)C(OC4CC(C)(O)C(N(C)C)C(C)O4)C2OC5)c2nc-3cs2)n1)C(N)=O (stereo not shown) — AUC(0-inf) (male Sprague-Dawley rats, plasma; intravenous infusion, 2 mg/kg): 805 ng·h/mL
OC1(C(F)(F)F)CCN(c2nc(Nc3ccnc(C(F)(F)F)c3)nc(-c3cccc(C(F)(F)F)n3)n2)C1 (stereo not shown) — AUC(0-inf) (Sprague-Dawley rat, both sexes, plasma; oral gavage, 5 mg/kg, day 14): 22600 ± 7330 ng·h/mL
O=C(NS(=O)(=O)c1cccs1)c1cc2ccccc2n1Cc1ccc(Br)c2ccccc12 — AUC(0-inf) (Sprague-Dawley rat, male, plasma; intravenous, 2 mg/kg): 2130 ng·h/mL
CCCC[C@H](OC(C)=O)c1ccccc1C(=O)O — AUC(0-inf) (Sprague-Dawley rat, both sexes, whole blood; intravenous, 5 mg/kg, 7 days): 4560 ± 1220 ng·h/mL
O=C(Nc1cc(-c2ccnc3[nH]ccc23)c(Cl)cn1)[C@H]1CCC[C@@H](NC(=O)C(F)(F)F)C1 — AUC(0-inf) (rat, plasma; oral, dose not given): 4460 ng·h/mL
Cc1cccc(C)c1CNc1cc(C(=O)N2CCC2)cn2c(C)c(C)nc12 — AUC(0-inf) (rat Sprague-Dawley male, plasma; oral, 10 mg/kg): 806 ng·h/mL
O=C(O)/C=C\c1cc2ccoc2cc1O[C@@H]1O[C@H](CO)[C@@H](O)[C@H](O)[C@H]1O — AUC(0-inf) decrease (rat, plasma; oral, dose not given, dosed as combined Eu and Pc extracts; baseline: single extracts): 771000 ± 703000 ng·h/mL
C/C(N)=N/C(=N\S(=O)(=O)c1ccc(C(F)(F)F)cc1)N1C[C@H](c2ccccc2)C(c2ccc(Cl)cc2)=N1 — AUC(0-inf) (Sprague-Dawley rat, male, plasma; intravenous, 3 mg/kg): 6280 ng·h/mL
CNC(=O)C1CCCN(C(=O)C2CC3CCC2N3C(=O)[C@@H]2C[C@@H](O)CN2C(=O)NCc2cccc(Cl)c2F)C1 (mixture of isomers) — AUC(0-inf) (Sprague-Dawley rat, plasma; intravenous, 2.5 mg/kg): 695 ng·h/mL

A few entries again:
CCCC[C@H](OC(C)=O)c1ccccc1C(=O)O — AUC(0-inf) (Sprague-Dawley rat, both sexes, whole blood; intravenous, 5 mg/kg, 7 days): 4560 ± 1220 ng·h/mL
